Assay results pooled from the literature.
Every numbered part comes from another study and shows a few of its results, in no order.
Chain of UniProt Q9BUB5 (whole entry, looked up): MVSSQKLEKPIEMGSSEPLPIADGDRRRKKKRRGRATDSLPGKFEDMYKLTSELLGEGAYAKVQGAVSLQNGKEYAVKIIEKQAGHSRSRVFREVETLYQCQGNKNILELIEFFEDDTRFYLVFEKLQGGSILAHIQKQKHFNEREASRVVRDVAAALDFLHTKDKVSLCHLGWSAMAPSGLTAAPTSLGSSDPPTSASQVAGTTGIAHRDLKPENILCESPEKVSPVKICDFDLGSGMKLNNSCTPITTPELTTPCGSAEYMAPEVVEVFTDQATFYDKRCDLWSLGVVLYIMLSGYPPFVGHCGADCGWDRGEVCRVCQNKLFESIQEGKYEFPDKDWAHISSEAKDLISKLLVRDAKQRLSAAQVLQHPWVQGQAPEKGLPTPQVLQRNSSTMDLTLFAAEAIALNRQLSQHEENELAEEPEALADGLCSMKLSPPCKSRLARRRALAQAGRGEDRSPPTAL
Chain of UniProt Q96D53 (whole entry, looked up): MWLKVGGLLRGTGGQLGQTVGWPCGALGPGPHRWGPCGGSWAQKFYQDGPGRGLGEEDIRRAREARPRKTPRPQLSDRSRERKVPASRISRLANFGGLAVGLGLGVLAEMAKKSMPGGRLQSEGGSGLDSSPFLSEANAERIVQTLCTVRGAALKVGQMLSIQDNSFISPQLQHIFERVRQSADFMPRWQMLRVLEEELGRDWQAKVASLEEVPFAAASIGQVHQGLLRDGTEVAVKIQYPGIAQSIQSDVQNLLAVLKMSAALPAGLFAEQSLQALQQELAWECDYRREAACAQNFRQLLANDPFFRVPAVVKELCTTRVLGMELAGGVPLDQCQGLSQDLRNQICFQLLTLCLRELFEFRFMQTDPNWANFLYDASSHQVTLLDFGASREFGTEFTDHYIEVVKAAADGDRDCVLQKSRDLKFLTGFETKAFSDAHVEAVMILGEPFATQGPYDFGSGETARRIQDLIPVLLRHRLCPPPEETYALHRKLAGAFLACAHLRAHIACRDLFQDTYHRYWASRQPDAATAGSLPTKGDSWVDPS
Chain of UniProt Q16539 (whole entry, looked up): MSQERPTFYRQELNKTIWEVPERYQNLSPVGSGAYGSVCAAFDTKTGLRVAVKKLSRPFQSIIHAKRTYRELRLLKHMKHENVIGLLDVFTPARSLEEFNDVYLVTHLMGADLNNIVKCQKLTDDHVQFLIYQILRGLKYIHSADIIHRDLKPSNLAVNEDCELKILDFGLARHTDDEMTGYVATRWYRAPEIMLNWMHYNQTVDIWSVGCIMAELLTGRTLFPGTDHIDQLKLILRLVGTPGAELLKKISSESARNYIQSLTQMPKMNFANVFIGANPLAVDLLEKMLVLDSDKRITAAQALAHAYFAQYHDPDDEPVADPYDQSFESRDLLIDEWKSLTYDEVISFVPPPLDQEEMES
Chain of UniProt Q9UPZ9 (whole entry, looked up): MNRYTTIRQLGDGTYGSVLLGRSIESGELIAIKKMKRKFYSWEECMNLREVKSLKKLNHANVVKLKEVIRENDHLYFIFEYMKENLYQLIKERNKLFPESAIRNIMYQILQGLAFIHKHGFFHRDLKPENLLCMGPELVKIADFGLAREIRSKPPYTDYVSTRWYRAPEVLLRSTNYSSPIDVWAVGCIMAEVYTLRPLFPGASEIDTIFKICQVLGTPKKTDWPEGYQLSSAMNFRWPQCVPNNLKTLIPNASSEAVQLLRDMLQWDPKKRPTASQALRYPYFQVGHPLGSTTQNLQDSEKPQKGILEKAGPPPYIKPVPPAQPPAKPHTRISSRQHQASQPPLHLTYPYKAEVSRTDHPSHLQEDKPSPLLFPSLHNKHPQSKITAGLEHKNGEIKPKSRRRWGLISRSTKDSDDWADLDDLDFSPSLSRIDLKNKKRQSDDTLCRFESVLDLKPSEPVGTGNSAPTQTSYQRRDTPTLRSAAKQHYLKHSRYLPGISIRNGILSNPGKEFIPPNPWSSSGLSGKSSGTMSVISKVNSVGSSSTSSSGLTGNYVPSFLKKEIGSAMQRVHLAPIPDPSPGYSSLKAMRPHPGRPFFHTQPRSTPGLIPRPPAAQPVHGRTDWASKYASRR
Chain of UniProt Q96SB4 (whole entry, looked up): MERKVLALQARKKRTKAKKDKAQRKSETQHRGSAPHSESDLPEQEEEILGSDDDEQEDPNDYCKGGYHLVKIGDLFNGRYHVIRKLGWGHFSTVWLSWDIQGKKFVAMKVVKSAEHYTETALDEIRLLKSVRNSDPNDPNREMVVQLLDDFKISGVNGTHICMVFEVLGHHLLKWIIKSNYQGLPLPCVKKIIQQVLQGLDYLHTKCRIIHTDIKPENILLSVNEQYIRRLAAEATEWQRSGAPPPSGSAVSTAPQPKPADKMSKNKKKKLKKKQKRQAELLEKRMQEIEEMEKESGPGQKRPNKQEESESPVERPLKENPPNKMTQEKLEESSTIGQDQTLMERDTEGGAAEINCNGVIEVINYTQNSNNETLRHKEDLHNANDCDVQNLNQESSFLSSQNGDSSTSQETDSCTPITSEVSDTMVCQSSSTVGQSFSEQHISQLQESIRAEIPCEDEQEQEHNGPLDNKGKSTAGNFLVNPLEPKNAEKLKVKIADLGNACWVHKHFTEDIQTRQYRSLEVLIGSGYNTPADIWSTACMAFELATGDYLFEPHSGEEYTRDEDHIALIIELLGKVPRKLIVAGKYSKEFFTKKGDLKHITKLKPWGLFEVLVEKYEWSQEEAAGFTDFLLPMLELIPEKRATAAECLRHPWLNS
Chain of UniProt O14936 (whole entry, looked up): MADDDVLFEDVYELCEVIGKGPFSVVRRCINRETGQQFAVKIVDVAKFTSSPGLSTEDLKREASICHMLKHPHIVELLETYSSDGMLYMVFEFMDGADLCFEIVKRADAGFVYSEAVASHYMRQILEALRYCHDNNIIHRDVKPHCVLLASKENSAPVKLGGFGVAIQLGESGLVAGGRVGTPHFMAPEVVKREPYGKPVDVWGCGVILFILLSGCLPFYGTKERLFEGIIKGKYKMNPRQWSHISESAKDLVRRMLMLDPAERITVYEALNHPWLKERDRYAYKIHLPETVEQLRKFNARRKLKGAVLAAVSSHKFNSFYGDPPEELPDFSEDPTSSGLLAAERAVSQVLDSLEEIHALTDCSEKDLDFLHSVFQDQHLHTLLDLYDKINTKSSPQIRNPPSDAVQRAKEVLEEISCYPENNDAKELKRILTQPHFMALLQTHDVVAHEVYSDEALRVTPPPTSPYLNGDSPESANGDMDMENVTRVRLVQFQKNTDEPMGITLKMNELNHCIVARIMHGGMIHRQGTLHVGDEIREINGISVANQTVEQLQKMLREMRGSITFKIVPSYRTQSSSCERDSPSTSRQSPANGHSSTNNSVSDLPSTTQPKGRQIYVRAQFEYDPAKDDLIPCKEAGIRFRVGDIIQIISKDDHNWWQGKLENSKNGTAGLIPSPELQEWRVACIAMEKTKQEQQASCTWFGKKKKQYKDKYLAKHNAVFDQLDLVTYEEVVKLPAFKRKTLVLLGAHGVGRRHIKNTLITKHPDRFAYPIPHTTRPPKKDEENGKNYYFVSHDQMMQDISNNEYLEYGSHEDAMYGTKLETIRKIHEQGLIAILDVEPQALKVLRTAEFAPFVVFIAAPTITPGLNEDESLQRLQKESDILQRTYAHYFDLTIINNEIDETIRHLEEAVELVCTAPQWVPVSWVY
Chain of UniProt Q9UL54 (whole entry, looked up): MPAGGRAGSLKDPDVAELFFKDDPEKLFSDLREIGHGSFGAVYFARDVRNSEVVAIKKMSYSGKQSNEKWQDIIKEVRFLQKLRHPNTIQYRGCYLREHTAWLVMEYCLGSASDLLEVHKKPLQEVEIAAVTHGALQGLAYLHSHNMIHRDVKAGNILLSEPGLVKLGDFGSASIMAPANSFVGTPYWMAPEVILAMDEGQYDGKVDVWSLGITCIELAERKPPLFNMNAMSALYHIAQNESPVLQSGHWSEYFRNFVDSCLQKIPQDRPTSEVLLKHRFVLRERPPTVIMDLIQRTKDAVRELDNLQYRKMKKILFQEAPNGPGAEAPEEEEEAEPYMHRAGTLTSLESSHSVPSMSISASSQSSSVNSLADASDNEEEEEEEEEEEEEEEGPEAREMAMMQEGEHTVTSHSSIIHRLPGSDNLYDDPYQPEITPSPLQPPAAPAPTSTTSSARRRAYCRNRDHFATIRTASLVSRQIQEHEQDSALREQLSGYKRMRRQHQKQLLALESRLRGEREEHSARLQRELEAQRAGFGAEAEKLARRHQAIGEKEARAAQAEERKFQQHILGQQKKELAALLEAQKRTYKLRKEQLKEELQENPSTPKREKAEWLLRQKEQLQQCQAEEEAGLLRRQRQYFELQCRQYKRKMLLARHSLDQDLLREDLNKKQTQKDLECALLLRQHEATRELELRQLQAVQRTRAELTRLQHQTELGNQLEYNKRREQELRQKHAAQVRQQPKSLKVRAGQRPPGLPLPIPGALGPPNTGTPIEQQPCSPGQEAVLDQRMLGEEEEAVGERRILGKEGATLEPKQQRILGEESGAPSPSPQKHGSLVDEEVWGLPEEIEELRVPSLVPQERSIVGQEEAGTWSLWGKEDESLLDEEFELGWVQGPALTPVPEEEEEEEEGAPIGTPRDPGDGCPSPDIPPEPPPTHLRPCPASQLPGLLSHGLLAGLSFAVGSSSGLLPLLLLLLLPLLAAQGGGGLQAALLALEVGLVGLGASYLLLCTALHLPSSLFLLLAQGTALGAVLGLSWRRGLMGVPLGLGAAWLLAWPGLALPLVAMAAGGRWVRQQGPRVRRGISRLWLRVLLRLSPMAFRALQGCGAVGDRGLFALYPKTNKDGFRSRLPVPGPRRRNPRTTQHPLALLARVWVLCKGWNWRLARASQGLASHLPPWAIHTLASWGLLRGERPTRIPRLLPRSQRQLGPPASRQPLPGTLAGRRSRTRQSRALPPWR

Block 1
Cell line: A-375
Tested at: 100 µM
Time: 36 h
| SMILES | viability [%] |
| --- | --- |
| CN(c1nccc(=O)[nH]1)C1CCN(c2nc3ccccc3n2Cc2ccc(F)cc2)CC1 | 22.9 |
| COC(=O)/C=C/C(=O)OC | 79.2 |
| O=C1c2cccc(O)c2C(=O)c2c(O)cc(CO)cc21 | 84.2 |
| Cc1noc(NS(=O)(=O)c2ccc(N)cc2)c1C | 98.2 |
| CC(=O)OCC(COC(C)=O)OC(C)=O | 122 |
| COc1ccc([C@@H]2CC(=O)c3c(O)cc(O)cc3O2)cc1O | 88.3 |
| CC(C)(C#N)c1cc(Cn2cncn2)cc(C(C)(C)C#N)c1 | 103 |
| CC(=O)O[C@H]1C(=O)[C@@]2(C)[C@H]([C@H](OC(=O)c3ccccc3)[C@]3(O)C[C@H](OC(=O)[C@H](O)[C@@H](NC(=O)c4ccccc4)c4ccccc4)C(C)=C1C3(C)C)[C@]1(OC(C)=O)CO[C@@H]1C[C@@H]2O | 32.5 |
| O=C(Nc1ccccc1)OCC(CN1CCCCC1)OC(=O)Nc1ccccc1 (stereo not drawn) | -1.21 |
| CCOc1ccc2nc3cc(N)ccc3c(N)c2c1 | 0.545 |
| C[C@]12CCC(=O)C=C1[C@@H]1C[C@@H]1[C@H]1[C@@H]3[C@@H]4C[C@@H]4[C@@]4(CCC(=O)O4)[C@@]3(C)CC[C@@H]12 | 45.5 |
| COc1cc(Cc2cnc(N)nc2N)cc(OC)c1OC | 101 |
| CCC(=O)OCC(=O)[C@@]1(OC(=O)CC)[C@@H](C)C[C@H]2[C@@H]3CCC4=CC(=O)C=C[C@]4(C)[C@@]3(Cl)[C@@H](O)C[C@@]21C | 68.2 |
| Cc1ncc([N+](=O)[O-])n1CC(O)CCl (stereo not drawn) | 105 |
| CCOC(=O)O[C@]1(C(=O)OCCl)CC[C@H]2[C@@H]3CCC4=CC(=O)C=C[C@]4(C)[C@H]3[C@@H](O)C[C@@]21C | 64.8 |
| COc1cc2nccc(Oc3ccc(NC(=O)NC4CC4)c(Cl)c3)c2cc1C(N)=O | 82.5 |
| CC(/C=C1\SC(=S)N(CC(=O)O)C1=O)=C\c1ccccc1 | 107 |

Block 2
SMILES: CC(C)n1cnc(-c2ccc(F)cc2)c1-c1ncc(C(=O)Nc2ccc(N3CCN(C)CC3)cc2)[nH]1
Species: idiopathic pulmonary fibrosis patients
| test | conditions | adverse event incidence [%] |
| --- | --- | --- |
| phase 2a trial, refers to: chronic gastritis | 30 mg once daily, grade 4 | 0 |
| phase 2a trial, refers to: hydroxybutyrate dehydrogenase increased | 30 mg once daily, grade 4 | 0 |
| phase 2a trial, refers to: gingivitis | dose not given, grade 4, all arms pooled | 0 |
| phase 2a trial, refers to: immunoglobulins increased | dose not given, grade 3, all arms pooled | 0 |
| phase 2a trial, refers to: gingivitis | 30 mg once daily, grade 2 | 0 |
| phase 2a trial, refers to: infection | 60 mg once daily, grade 2 | 0 |
| phase 2a trial, refers to: immunoglobulins increased | 30 mg once daily, grade 1 | 0 |
| phase 2a trial, refers to: gingivitis | dose not given, grade 5, all arms pooled | 0 |
| phase 2a trial, refers to: carotid intima-media thickening | 60 mg once daily, grade 3 | 0 |
| phase 2a trial, refers to: chronic gastritis | 30 mg once daily, grade 5 | 0 |
| phase 2a trial, refers to: ventricular extrasystoles | 60 mg once daily, grade 1 | 0 |
| phase 2a trial, refers to: gingivitis | 30 mg once daily, grade 4 | 0 |
| phase 2a trial, refers to: ECG ST segment abnormal | 30 mg once daily, grade 4 | 0 |
| phase 2a trial, refers to: appendicitis | dose not given, grade 4, all arms pooled | 0 |
| – | dose not given, gastritis grade 5 | 0 |
| phase 2a trial, refers to: general and administration site disorders | 30 mg once daily, grade 3 | 0 |

Block 3
Structure (SMILES): C[C@H](c1cccc(C#N)c1)n1cc(Cl)cc(C(N)=O)c1=N
Read-out: cell-free assay
Method: competition with immobilised ligand
Tested at: 1 µM
| target | remaining binding |
| --- | --- |
| Ephrin type-B receptor 1 (EPHB1, Homo sapiens, UniProt P54762) | 100% |
| Peripheral plasma membrane protein CASK (CASK, Homo sapiens, UniProt O14936) | 82% |
| Ribosomal protein S6 kinase alpha-2, N-terminal kinase domain (RPS6KA2, Homo sapiens, UniProt Q15349) | 97% |
| Serine/threonine-protein kinase MRCK alpha (CDC42BPA, Homo sapiens, UniProt Q5VT25) | 100% |
| SRSF protein kinase 1 (SRPK1, Homo sapiens, UniProt Q96SB4) | 96% |
| Serine/threonine-protein kinase ICK (CILK1, Homo sapiens, UniProt Q9UPZ9) | 98% |
| Cyclin-dependent kinase-like 5 (CDKL5, Homo sapiens, UniProt O76039) | 73% |
| Hepatocyte growth factor receptor (MET, Homo sapiens, UniProt P08581, Y1235D) | 100% |
| Receptor-type tyrosine-protein kinase FLT3 (FLT3, Homo sapiens, UniProt P36888, ITD) | 100% |
| MAP kinase-interacting serine/threonine-protein kinase 1 (MKNK1, Homo sapiens, UniProt Q9BUB5) | 63% |
| Dual specificity protein kinase CLK4 (CLK4, Homo sapiens, UniProt Q9HAZ1) | 100% |
| Tyrosine-protein kinase ABL1, phosphorylated (ABL1, Homo sapiens, UniProt P00519, Y253F) | 88% |
| Mitogen-activated protein kinase 4 (MAPK4, Homo sapiens, UniProt P31152) | 82% |
| Serine/threonine-protein kinase Nek5 (NEK5, Homo sapiens, UniProt Q6P3R8) | 93% |
| Atypical kinase COQ8B, mitochondrial (COQ8B, Homo sapiens, UniProt Q96D53) | 100% |
| Serine/threonine-protein kinase TAO2 (TAOK2, Homo sapiens, UniProt Q9UL54) | 82% |
| Tyrosine-protein kinase ZAP-70 (ZAP70, Homo sapiens, UniProt P43403) | 92% |
| Mitogen-activated protein kinase 14 (MAPK14, Homo sapiens, UniProt Q16539) | 100% |

Block 4
Target: Phosphorylase b kinase gamma catalytic chain, liver/testis isoform (PHKG2, Homo sapiens, UniProt P15735)
Read-out: enzyme activity
Action: inhibitor
Tested at: 0.5 µM
Relative to: control
Residues (P15735 1-406): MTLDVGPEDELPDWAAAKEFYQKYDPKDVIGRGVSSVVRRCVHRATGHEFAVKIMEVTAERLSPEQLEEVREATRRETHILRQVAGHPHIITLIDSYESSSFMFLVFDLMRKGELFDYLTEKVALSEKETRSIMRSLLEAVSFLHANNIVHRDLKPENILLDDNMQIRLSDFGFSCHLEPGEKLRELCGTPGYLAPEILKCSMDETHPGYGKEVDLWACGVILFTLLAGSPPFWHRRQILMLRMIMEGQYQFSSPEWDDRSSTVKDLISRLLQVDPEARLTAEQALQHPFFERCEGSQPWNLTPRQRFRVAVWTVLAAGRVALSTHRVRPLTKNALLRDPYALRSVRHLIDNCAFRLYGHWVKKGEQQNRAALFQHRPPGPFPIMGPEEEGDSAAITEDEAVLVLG
| SMILES | remaining activity [%] |
| --- | --- |
| Nc1nc(Nc2ccc(S(N)(=O)=O)cc2)nn1C(=S)Nc1c(F)cccc1F | 95.5 |
| O=c1c(-c2ccc(F)cc2)c(-c2ccncc2)[nH]n1-c1ccc(Cl)cc1 | 121 |
| O=C1c2ccccc2-c2nc3nnnn3nc21 | 96.1 |
| NC(=O)c1cccc(-c2cc(Nc3ccc(OC(F)(F)F)cc3)ncn2)c1 | 103 |
| N#CC(c1ccnc(NCCc2cccnc2)n1)c1nc2ccccc2s1 (stereo not drawn) | 99.5 |
| O=C(c1ccccc1)c1ccc(N2CCOCC2)cc1O | 101 |
| COc1cc2c(N3CCN(C(=O)Nc4ccc(OC(C)C)cc4)CC3)ncnc2cc1OCCCN1CCCCC1 | 98.9 |
| NC(=O)c1ccc(-c2nc(-c3ccc4c(c3)OCCO4)c(-c3ccccn3)[nH]2)cc1 | 97.3 |
| CC(C)(C)c1nc2c3cc[nH]c(=O)c3c3cc(F)ccc3c2[nH]1 | 57.3 |
| CNc1cc2c(Nc3cccc(Br)c3)ncnc2cn1 | 113 |
| CCCCc1c(-c2ccc(O)cc2)[nH]c2nccnc12 | 100 |
| O=C(O)/C=C/c1cc(Br)c(Br)c(Br)c1Br | 98.9 |
| C[C@@H](N)[C@H]1CC[C@H](C(=O)Nc2ccncc2)CC1 | 95.7 |
| CCN(CC)CCCCN1c2ccccc2Oc2ccc(Cl)cc21 | 110 |
| CC(C)N(CCC(=O)c1ccc2ccccc2c1)Cc1ccccc1 | 99.9 |
| N#C/C(=C(/N)SC1C=CC=CC1)c1cccc(C(O)c2ccncc2)c1 (stereo not drawn) | 101 |
| FC(F)(F)c1ccc(/C=C/c2nc(COc3ccc(CCCCn4ccnn4)cc3)co2)cc1 | 93.5 |
| c1cc(-c2cnn3cc(-c4ccc(OCCN5CCCCC5)cc4)cnc23)ccn1 | 31.2 |
| CC(C)n1cnc2c(Nc3cccc(Cl)c3)nc(NCCO)nc21 | 93.2 |
| O=Nc1c(-c2c(O)[nH]c3ccccc23)[nH]c2ccccc12 | 60.7 |
| O=C1NC(=O)/C(=C/c2ccc3c(c2)OC(F)(F)O3)S1 | 95.2 |

Repeated from above (block 3):
| target | remaining binding |
| --- | --- |
| Ephrin type-B receptor 1 (EPHB1, Homo sapiens, UniProt P54762) | 100% |
| Tyrosine-protein kinase ABL1, phosphorylated (ABL1, Homo sapiens, UniProt P00519, Y253F) | 88% |
| Hepatocyte growth factor receptor (MET, Homo sapiens, UniProt P08581, Y1235D) | 100% |
| MAP kinase-interacting serine/threonine-protein kinase 1 (MKNK1, Homo sapiens, UniProt Q9BUB5) | 63% |
| Dual specificity protein kinase CLK4 (CLK4, Homo sapiens, UniProt Q9HAZ1) | 100% |
| SRSF protein kinase 1 (SRPK1, Homo sapiens, UniProt Q96SB4) | 96% |
| Serine/threonine-protein kinase TAO2 (TAOK2, Homo sapiens, UniProt Q9UL54) | 82% |
| Serine/threonine-protein kinase ICK (CILK1, Homo sapiens, UniProt Q9UPZ9) | 98% |
| Atypical kinase COQ8B, mitochondrial (COQ8B, Homo sapiens, UniProt Q96D53) | 100% |
| Ribosomal protein S6 kinase alpha-2, N-terminal kinase domain (RPS6KA2, Homo sapiens, UniProt Q15349) | 97% |
| Mitogen-activated protein kinase 4 (MAPK4, Homo sapiens, UniProt P31152) | 82% |
| Receptor-type tyrosine-protein kinase FLT3 (FLT3, Homo sapiens, UniProt P36888, ITD) | 100% |
